{"data": "Published values collected from several papers", "TDP1": "Tyrosyl-DNA phosphodiesterase 1 (TDP1, Homo sapiens, UniProt Q9NUW8)", "note": "± gives the spread as reported.", "chain of UniProt Q9NUW8 (whole entry, looked up)": "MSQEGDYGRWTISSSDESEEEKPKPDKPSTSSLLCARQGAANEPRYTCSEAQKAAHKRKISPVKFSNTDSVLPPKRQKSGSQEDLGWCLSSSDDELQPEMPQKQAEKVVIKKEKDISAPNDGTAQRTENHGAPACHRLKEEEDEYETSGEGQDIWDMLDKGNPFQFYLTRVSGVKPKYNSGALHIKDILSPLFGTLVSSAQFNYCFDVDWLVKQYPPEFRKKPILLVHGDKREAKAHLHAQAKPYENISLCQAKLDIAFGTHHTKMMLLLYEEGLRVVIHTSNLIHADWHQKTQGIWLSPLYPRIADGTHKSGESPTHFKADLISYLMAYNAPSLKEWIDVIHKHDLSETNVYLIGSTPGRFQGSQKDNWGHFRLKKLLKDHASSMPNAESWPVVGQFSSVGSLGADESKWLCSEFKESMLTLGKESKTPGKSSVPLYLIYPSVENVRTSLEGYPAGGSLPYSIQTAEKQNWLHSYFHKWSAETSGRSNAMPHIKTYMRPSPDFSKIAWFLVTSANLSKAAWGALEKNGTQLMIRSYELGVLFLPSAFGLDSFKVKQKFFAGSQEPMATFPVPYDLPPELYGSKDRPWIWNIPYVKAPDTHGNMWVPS"}
{"SMILES": "CCc1cnc(N2CCC(c3nc(COc4ccc(-n5cnnn5)cc4)cs3)CC2)nc1", "target or system": "HEK-293T ATF4-FLuc reporter", "test": "reporter gene, activator, item: ATF4-FLuc", "conditions": "8 h", "endpoint": "EC50", "value": "3600 nM"}
{"SMILES": "CC[C@H]1CN([C@@H](CC)c2ccc(C(F)(F)F)cc2)[C@H](CC)CN1c1nc(=O)n(C)c2ccc(C#N)nc12", "target or system": "CD4+ T cells", "test": "phospho-ERK amplification, flow cytometry", "test system": "human whole blood", "conditions": "with: suboptimal anti-CD3", "endpoint": "EC50", "value": "8 nM"}
{"SMILES": "C=C(NC(=O)c1csc(-c2ccc(NC(=O)CCCCCBr)cc2)n1)C(=O)NC(=C)C(=O)OC", "target or system": "H-MESO-1", "test": "cell viability, crystal violet", "conditions": "48 h", "endpoint": "EC50", "value": "860 ± 60 nM"}
{"SMILES": "COc1ccc(Nc2nc(Cl)c(C=NOCc3ccc4nc(-c5ccccc5)c(Nc5ccc(C(=O)O)cc5)n4c3)s2)cc1 (mixture of isomers)", "target or system": "TDP1", "test": "enzyme activity, inhibitor", "conditions": "100 µM, unpurified compound", "endpoint": "inhibition", "value": "35.1%"}
{"SMILES": "Cc1cc(C)nc(NC(=S)N2CCN(c3ccncc3)CC2)c1", "target or system": "HCC70", "test": "cell viability, CellTiter-Glo", "conditions": "4 days", "endpoint": "EC50", "value": "> 100000 nM"}
{"SMILES": "CN1CC[C@@H](COc2cnc(C#N)cc2-c2ccn3nc(NC(=O)C4CC4)cc3c2)C1", "target or system": "wild-type mouse BMDC", "test": "IL-10 release, inducer", "conditions": "4 h, with: LPS", "endpoint": "EC50", "value": "950 nM"}
{"SMILES": "C=C(NC(=O)c1csc(-c2cccnc2)n1)C(=O)NC(=C)C(=O)OC", "target or system": "H-MESO-1", "test": "cell viability, crystal violet", "conditions": "48 h", "endpoint": "EC50", "value": "4000 ± 400 nM"}
{"SMILES": "COc1ccc(CC[C@H]2OC(=O)[C@@H]3CCCCN3C(=O)C(=O)C(C)(C)COC(=O)/C=C/CCN(C)C(=O)[C@H](CC(C)C)N(C)C(=O)[C@@H]3CCCN3C(=O)[C@H](Cc3ccccc3)N(C)C(=O)[C@H](c3ccccc3)NC(=O)CCC(=O)Nc3cccc2c3)cc1OC", "target or system": "human red blood cells", "test": "[3H]adenosine uptake, inhibitor", "endpoint": "EC50", "value": "45.2 nM"}
{"SMILES": "O=c1[nH]nc(OCCCc2ccc(Cl)cc2)c(NCc2cccnc2)c1Br", "target or system": "HEK-293T ATF4-FLuc reporter", "test": "reporter gene, activator, item: ATF4-FLuc", "endpoint": "EC50", "value": "2400 nM"}
{"SMILES": "O=C(O)c1ccc(Nc2c(-c3ccc(CON=Cc4ccc(-c5nc6ccccc6s5)o4)cc3)nc3cc(-c4ccccc4)ccn23)cc1", "target or system": "TDP1", "test": "enzyme activity, inhibitor", "conditions": "100 µM, unpurified compound", "endpoint": "inhibition", "value": "33.2%"}
{"SMILES": "C=CC(=O)N1[C@@H](c2ccc3c(c2)OCO3)c2[nH]c3ccccc3c2C[C@H]1C(=O)NC1CC1", "target or system": "rat DRG neurons", "test": "neurite degeneration", "conditions": "48 h, with: vincristine 40 nM", "endpoint": "EC50", "value": "2730 nM"}
{"SMILES": "C=C(NC(=O)C(=C)NC(=O)c1csc(C2=N[C@@H]3c4csc(n4)[C@H]4NC(=O)c5csc(n5)[C@H]([C@](C)(O)[C@@H](C)O)NC(=O)[C@H]5CSC(=N5)/C(=C/C)NC(=O)[C@H]([C@@H](C)O)NC(=O)c5csc(n5)[C@]3(CC2)NC(=O)[C@H](C)NC(=O)C(=C)NC(=O)[C@H](C)NC(=O)[C@H]([C@@H](C)CC)N[C@@H]2C=Cc3c([C@H](C)O)cc(nc3[C@H]2O)C(=O)O[C@@H]4C)n1)C(N)=O", "target or system": "H-MESO-1", "test": "cell viability, crystal violet", "conditions": "24 h exposure, 48 h total", "endpoint": "EC50", "value": "720 nM"}
{"SMILES": "CC(=O)N[C@@H](CC[S+](C)[Ru-4]123([S+](C)CC[C@H](NC(C)=O)C(=O)O)[n+]4ccc5ccccc5c4Nc4cccc([n+]41)-c1cccc([n+]12)Nc1c2ccccc2cc[n+]13)C(=O)[O-].F[P-](F)(F)(F)(F)F (stereo partly shown)", "target or system": "MRC-5", "test": "photocytotoxicity, SRB", "conditions": "24 h, with: green light", "endpoint": "EC50", "value": "< 1000 nM"}
{"note": "Repeated from above:"}
{"SMILES": "O=C(O)c1ccc(Nc2c(-c3ccc(CON=Cc4ccc(-c5nc6ccccc6s5)o4)cc3)nc3cc(-c4ccccc4)ccn23)cc1", "target or system": "TDP1", "test": "enzyme activity, inhibitor", "conditions": "100 µM, unpurified compound", "endpoint": "inhibition", "value": "33.2%"}
